Measured values from different studies.
Parts stem from different laboratories: compare values within a part only. Positions count from the first letter of the parent shown.

Series 1 — method: EMSA with sequencing; molecule type: double-stranded DNA, one strand shown; sample: in vitro; tested at: 10 and 20 nM; baseline: negative control set to 0; direction: higher = stronger binding
Target: Hepatocyte nuclear factor 3-alpha (Foxa1, Mus musculus, UniProt P35582, residues 1-468, full length assumed)
Setting: whole designed probe, mean of two concentrations, ends assumed
Residues (chain): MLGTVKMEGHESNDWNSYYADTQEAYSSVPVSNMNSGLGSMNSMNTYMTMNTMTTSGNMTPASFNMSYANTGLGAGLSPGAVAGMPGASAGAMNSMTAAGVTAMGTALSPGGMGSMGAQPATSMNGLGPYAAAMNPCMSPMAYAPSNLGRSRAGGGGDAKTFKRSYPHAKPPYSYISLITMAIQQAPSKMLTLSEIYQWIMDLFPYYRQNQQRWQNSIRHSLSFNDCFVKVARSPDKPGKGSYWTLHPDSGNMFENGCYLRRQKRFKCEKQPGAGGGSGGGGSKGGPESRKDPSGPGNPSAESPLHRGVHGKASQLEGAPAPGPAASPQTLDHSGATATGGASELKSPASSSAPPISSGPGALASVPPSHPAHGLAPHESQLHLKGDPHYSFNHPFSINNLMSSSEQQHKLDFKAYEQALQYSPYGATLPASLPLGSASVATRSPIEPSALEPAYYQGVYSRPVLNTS
Strand	normalised bound fraction [ratio]
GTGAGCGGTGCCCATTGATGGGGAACAACATGCAGAGCTTTCTGATACAAACAAAAGCAGCTTCACCACCAAACAAATGCTAATTCTTTTTTAACGCTCTTATTTCCCTGCAGATCTCTGTTTACATTGAAGAAAATGGTTCTATTTTTTTGTATGCTAAAATACTGAAACAAATTGCTTTGAAAGAGAGAGGAAAAAGGGGTGGGAGAGTTTCCTGCTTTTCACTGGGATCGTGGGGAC	0.348
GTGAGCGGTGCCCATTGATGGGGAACATCTTCCCCCTCTTCCTTGCCCCACCAGCTCACCTTCCCGGGTTATTTGCAGATAGGAAAATAAATAAAGCCGGCATTCGTTAACGCAGTTCTGGCGCAAACTGCTGTTTGCTCTGGATGAATCATGGTCCTTTGGCGACGCCAGGCTCCGGGAGAGCAAAGCACCGTGTCAGGGCCATGATCCGGGCTCGCCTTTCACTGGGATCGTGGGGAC	0.343
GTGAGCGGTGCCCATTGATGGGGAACCAAGTTTGTGGTCCAGGAGCAACAGGTTATGCCATACAGCCTAGGTGTGTAGTAGGCTACACCCATGACTCATTTGTGTTGTACACTCTACAATGTTTGCACAATGATGAAATCCCATGTCACATTTCTCAGAACATACCCCTGTTGTTAAGCGATACATGACTGTACTTTTTTTAAAAAGTCCAAGGATATATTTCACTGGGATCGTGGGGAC	0.429
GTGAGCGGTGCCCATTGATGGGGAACTGCTCTTACATATGAGTGATAATTGGGCTGGATATAGAATTCTAGGTTGGAAATATTTTTTCTTTAAAATGTTGAAGTCACTGTCCTGTTTTTAGATTGCTTTTTTGTGGGATTTTCTCCCTGTGTGCTATTGAGACTTCTGAATTCATTCTAATTCCTGACTGTGGCATGTGACTTGTTTTTCTCCTTCCCTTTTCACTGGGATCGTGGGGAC	-0.0767
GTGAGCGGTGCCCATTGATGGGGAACCAAGTTTGTGGTCCAGGAGCAACAGGTTATGCCATACAGCCTAGGTGTGTAGTAGGCTACACACCGTCTATGTTTGTGCCATGACTCATACAATGTTTGCACAATGATGAAATCCCATGTCACATTTCTCAGAACATACCCCTGTTGTTAAGCGATACATGACTGTACTTTTTTTAAAAAGTCCAAGGATATATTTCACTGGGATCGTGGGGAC	0.358
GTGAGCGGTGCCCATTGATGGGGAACATCTTCCCCCTCTTCCTTGCCCCACCAGCTCACCTTCCCGGGTTATTTGCAGATAGGAAAATAAATAAAGCCGGCATTCGTTAACGCAGTTCTGGCGCAAACTGCTGTTTGCTCTGCATCTAACATGGTCCTTACGCGACGCCAGGCTCCGGGAGAGCAAAGCACCGTGTCAGGCGCATGATCCGGGGTGGCCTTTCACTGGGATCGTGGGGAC	0.362
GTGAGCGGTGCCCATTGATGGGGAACTTTTTTAATAAGAGGGACACTCAGTGAAATTTTTGCGTGAAAATAAGATAAAGTTCTATTGTTCAGCTTTTAATGATAGCATGGAATTCTAAGTAATCTTGGATGAAATACAACTTGTCAGCACAAAAATACTGCCTGTCATAGTCATTTGTGTATAAAATATGACCCGCAGGTTTGAACCATATGGTTACATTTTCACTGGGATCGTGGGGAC	-0.0514
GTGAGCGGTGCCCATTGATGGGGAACTGATGATACGTTATAGCATTTCTCTGCTCTGTAAGAGAGGCACCAGGGTCGTGTGCTGGGTCTGGGGTTTGTCCATTCGCACATCCGGTCTGCTGTTGACTCTGGTGTCGGCCGCTGGTGAGCTGGCTGTAGCTGGTCACCTCTGGGTGGTTTCTGGGGCGGTCGCAGGCTGACTAACACACCAAAGGTCAGCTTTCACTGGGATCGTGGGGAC	0.0064

Series 2 — target: UBE2I UBC core domain (UniProt P63279); method: yeast two-hybrid; sample: yeast; setting: mostly zero background; baseline: not given; direction: higher = stronger interaction
B1: SH3RF1 RING domain (UniProt Q7Z6J0); chain DESALLDLLECPVCLERLDASAKVLPCQHTFCKRCLLGIVGSRNELRCPECRTLVGSGVEEL
B2: DTX2 RING domain (UniProt Q86UW9); chain EELKVPPDEDCIICMEKLSTASGYSDVTDSKAIGSLAVGHLTKCSHAFHLLCLLAMYCNGNKDGSLQCPSCKTIYGEKTGTQ
B3: SYTL4 RING domain (UniProt Q96C24); chain RGSQHYSDRTCARCQESLGRLSPKTNTCRGCNHLVCRDCRIQESNGTWRCKVCAKEIELKKAT
B4: RFWD3 RING domain (UniProt Q6PCD5); chain ASMDEEEGDTCTICLEQWTNAGDHRLSALRCGHLFGYRCISTWLKGQVRKCPQCNKKARHSDIVV
B5: MAP3K1 RING domain (UniProt Q13233); chain NSIKDEEEQMCPICLLGMLDEESLTVCEDGCRNKLHHHCMSIWAEECRRNREPLICPLCRSKWRSHDFYS
B6: ZMIZ2 RING domain (UniProt Q8NF64); chain GTIPGTPGPNGEDGVEQTAIKVSLKCPITFRRIQLPARGHDCRHIQCFDLESYLQLNCERGTWRCPVCNKTALLEGLEVDQYMLGILIYIQNSDYEEITIDPTCSWK
Molecule	lacZ reporter activity
B1 (SH3RF1 RING domain)	0
NLSELTPYILCSICKGYLIDATTITECLHTFCKSCIVRHFYYSNRCPKCNIVVHQTQPLY (PCGF6 RING domain (UniProt Q9BYE7))	0
AVPSGLEENLCKICMDSPIDCVLLECGHMVTCTKCGKRMNECPICRQYVIRAVHVF (RFFL RING domain (UniProt Q8WZ73))	0
B2 (DTX2 RING domain)	0
B3 (SYTL4 RING domain)	0
B4 (RFWD3 RING domain)	0
GSRLQEINDVCAICYHEFTTSARITPCNHYFHALCLRKWLYIQDTCPMCHQKVYIEDDIK (RNF139 RING domain (UniProt Q8WU17))	0
B5 (MAP3K1 RING domain)	0
AMYLQENGIDCPKCKFSYALARGGCMHFHCTQCRHQFCSGCYNAFYAKNKC (RNF31 RING domain (UniProt Q96EP0))	0
B6 (ZMIZ2 RING domain)	0

Series 3 — method: protein-binding microarray; molecule type: double-stranded DNA, one strand shown; sample: in vitro; tested at: 0.8 µM; setting: whole 60-bp probe, no competitor; direction: higher = stronger binding
Target: Centromere-binding protein 1, full length, N-terminal tag (CBF1, Saccharomyces cerevisiae, UniProt P17106, residues 1-351)
Sequence of UniProt P17106 (whole entry, looked up): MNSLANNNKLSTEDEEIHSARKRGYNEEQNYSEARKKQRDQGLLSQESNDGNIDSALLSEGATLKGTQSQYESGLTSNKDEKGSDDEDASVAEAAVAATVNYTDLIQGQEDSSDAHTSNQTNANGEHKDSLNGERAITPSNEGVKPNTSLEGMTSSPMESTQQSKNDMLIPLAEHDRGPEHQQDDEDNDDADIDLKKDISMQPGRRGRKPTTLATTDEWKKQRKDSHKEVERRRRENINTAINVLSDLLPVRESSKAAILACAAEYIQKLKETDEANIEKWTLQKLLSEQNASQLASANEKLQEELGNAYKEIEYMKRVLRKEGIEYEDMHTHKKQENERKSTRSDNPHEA
Strand	fluorescence intensity [a.u.]
CTACTGGCTTTTCTCCACGTGTCTGCTTGTTGCTTCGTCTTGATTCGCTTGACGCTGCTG	2370
GAAGGTATTGTAGGTGGTGCGATGCTTATTGCCTAGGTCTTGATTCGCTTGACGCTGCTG	523
GAAGGCTTATTAAGACATCAGAGTTCATTAAATTAGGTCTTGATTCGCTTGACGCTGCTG	477
GAATTTTTCTTTTACTACGTGTGATCCTCTAAATAGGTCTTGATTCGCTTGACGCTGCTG	707
CTATTGTTTTTAGATCACGATAGCACATTTGAGTTCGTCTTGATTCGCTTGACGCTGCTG	994
CTACAGCCGCACAGTCACGTGACAGTATACGATTTCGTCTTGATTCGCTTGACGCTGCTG	47100
GAACATTATAAGATGCACGTTTCAACATACTGTTAGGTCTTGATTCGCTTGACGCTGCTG	675
CTATACTACTATTAACAACTGATGGCATCTAGATTCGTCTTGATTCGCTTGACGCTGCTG	509
CTAATTCTGCTTGACCACGAATGTACTGCTAATTTCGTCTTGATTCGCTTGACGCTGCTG	538
GAAGACTGTGACTACCTCCTGACTTCCTGTCATTAGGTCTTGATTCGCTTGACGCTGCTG	626
CTAGAAGTGAAAATTTTCGTGATAATAGCGATGTTCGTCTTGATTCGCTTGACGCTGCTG	521
GAATCTTGAACGCTGCTGACCACGGTTTCACTGTAGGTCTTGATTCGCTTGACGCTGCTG	560
CTAATTATCAAACCACATGAAACTTTTTTAATCTTCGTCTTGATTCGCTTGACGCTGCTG	650
GAAACATAACGAAGCCACGAGTATTCTATTTGTTAGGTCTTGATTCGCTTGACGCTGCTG	588
GAAGAAGTCTGCCATCATGATGTCCAAGAGGGTTAGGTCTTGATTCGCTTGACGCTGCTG	512
CTAAGGGTACATTGCATCATGACTATTCGTGGTTTCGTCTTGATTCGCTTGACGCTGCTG	511
CTACCAGCATGTAGGAAGGTGATGATATGCTCCTTCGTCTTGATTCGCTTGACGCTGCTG	522
CTATTTTTTTGTTGGCTCGTGGTTGTTCTCGAATTCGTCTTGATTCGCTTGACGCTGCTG	640
CTAGGCCGATGAAACGACACCACCTCCCACGATTTCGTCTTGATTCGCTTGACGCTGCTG	543
GAATCTTGGTCTTGCCATGTGGTCGGGATATTCTAGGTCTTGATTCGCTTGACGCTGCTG	820

Series 4 — method: universal PBM; molecule type: double-stranded DNA, one strand shown; sample: in vitro; tested at: 600 nM; direction: higher = stronger binding
Target: Sal-like protein 4, full length isoform A (SALL4, Homo sapiens, UniProt Q9UJQ4, residues 1-1053)
Sequence of UniProt Q9UJQ4 (whole entry, looked up): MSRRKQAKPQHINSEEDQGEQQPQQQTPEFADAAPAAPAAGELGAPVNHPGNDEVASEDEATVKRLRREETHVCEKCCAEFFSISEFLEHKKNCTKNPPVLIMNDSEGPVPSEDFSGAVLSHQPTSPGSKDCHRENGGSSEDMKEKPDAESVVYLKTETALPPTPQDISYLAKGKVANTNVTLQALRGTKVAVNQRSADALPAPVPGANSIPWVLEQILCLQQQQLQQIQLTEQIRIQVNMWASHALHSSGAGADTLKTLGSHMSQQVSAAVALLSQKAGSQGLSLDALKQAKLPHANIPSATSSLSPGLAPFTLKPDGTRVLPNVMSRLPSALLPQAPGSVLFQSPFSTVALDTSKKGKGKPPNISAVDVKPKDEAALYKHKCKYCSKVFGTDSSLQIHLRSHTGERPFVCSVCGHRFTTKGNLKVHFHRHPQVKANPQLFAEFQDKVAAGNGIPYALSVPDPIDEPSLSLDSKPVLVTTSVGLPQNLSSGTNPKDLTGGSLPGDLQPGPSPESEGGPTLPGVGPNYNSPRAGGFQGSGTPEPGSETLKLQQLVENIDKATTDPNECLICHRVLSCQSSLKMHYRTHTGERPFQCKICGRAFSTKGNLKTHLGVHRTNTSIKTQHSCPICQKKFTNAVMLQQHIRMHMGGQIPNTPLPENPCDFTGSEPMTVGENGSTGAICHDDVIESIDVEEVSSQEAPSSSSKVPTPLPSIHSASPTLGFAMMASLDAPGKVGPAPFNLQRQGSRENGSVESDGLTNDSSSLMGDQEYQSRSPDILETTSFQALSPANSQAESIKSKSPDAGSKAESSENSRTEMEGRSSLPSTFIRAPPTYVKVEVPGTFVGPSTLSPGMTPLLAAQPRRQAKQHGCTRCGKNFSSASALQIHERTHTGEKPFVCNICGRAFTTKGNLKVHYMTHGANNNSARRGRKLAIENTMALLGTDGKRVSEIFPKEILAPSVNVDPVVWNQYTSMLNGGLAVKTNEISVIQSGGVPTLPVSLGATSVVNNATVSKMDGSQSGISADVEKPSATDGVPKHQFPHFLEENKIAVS
Setting: 8-mer, flanks averaged, mean of replicates
Strand	E-score
GACAAGGA	0.207
AAACCATC	0.0318
GACTAGGA	-0.00307
AGCCCAGC	-0.362
AGCAGACG	-0.239
TGACGGAA	0.0395
GGTAGCGA	-0.0732
ACAGCTCC	-0.124
TAACCTCA	0.136
GACTGCGC	-0.141
GAAGTTTA	0.205
GAAAGATA	0.224
CTCAACTC	-0.016
AATCCATC	0.0815
ACTCCTTA	0.0616
AGTACGTG	-0.115
AAACCCGG	-0.272

Series 5 — target: CCND1, cyclin fold, Cln2 fusion (human); method: yeast growth competition, sequencing; sample: yeast; setting: weak parent motif; baseline: not given; direction: higher = stronger binding
Starting sequence: ORC1 docking peptide (human); PRARKRLELGNLG; partner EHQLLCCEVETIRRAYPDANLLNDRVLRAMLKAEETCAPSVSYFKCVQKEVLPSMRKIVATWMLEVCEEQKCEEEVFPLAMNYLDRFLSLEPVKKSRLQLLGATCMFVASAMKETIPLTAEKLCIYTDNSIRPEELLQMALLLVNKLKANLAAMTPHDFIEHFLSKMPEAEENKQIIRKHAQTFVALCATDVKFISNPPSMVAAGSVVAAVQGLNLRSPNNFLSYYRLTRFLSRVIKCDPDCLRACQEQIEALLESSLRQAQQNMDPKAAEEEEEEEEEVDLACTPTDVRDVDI
Substitution	normalised enrichment score
L12T	-0.0351
L9Y	-0.0914
L9I	-0.146
R6Y	0.162
A3F	-0.113
L9P	-0.487
G13T	-0.263
R6T	0.435
P1D	0.605
K5H	-0.0553
R6S	-0.0921
N11H	-0.145
K5G	-0.0923
K5A	-0.048
K5N	0.133
K5L	-0.222
G13P	-0.241
P1Q	0.185
A3E	0.306
L12C	0.0994
K5F	0.0693
L9V	0.366
G13D	0.0153
R2V	0.17
A3G	-0.748
